Assay results gathered from unrelated publications.
Numbers after ± are the reported error.
OPRM1: Mu-type opioid receptor (OPRM1, Homo sapiens, UniProt P35372)
Sequence of UniProt P35372 (whole entry, unmodified, looked up): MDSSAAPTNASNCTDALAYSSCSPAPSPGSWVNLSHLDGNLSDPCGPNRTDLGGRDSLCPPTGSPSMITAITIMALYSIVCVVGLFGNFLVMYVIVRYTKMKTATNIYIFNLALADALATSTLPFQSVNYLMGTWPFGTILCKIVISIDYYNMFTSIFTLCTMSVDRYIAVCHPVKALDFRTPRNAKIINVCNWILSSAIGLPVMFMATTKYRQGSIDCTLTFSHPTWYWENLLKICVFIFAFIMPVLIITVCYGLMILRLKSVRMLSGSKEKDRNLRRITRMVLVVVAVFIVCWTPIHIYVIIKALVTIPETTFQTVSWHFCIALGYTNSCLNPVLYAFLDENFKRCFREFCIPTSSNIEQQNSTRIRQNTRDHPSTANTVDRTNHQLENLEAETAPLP

| Compound | target or system | test | system | conditions | measurement | value |
| --- | --- | --- | --- | --- | --- | --- |
| COc1cc(Nc2ncc(F)c(Nc3ccc4c(n3)NC(=O)C(C)(C)O4)n2)cc(OC)c1OC | OPRM1 |  |  |  | IC50 | > 10000 nM |
| CC(NCCc1ccc(O)cc1)C(O)c1ccc(O)cc1 (centres unmarked) | OPRM1 | receptor activation, agonist |  |  | EC50 | 8100 nM |
| CC[C@@H](c1cccc(O)c1)[C@@H](C)CN(C)C | OPRM1 (Homo sapiens, UniProt P35372, N40D) | agonist | human cells | N40D receptor, no receptor depletion | EC50 | 398 nM |
| CCC(CC)CC1(C(=O)Nc2ccccc2SC(=O)C(C)C)CCCCC1 | human coronavirus OC43 | virus-induced cell killing | MRC-5 | screen | maximum inhibition | 12.5% |
| Oc1cccc([C@@]23CCC[C@@H](C2)N(CCc2ccccc2)C[C@H]3O)c1 (relative stereo) | OPRM1 | antagonist |  |  | Kb | 12 ± 2 nM |
| CC(Cc1ccccc1)NCCC(c1ccccc1)c1ccccc1 (centres unmarked) | OPRM1 | radioligand binding, inhibitor | CHO-K1 | together with: [3H]naloxone | IC50 | 1790 nM |
| Oc1cccc(N2C3CCC2CN(CCc2ccccc2)C3)c1 | OPRM1 |  |  |  | EC50 | 0.27 ± 0.06 nM |
| Cc1c(O)c(=O)ccn1C | human coronavirus OC43 | virus-induced cell killing | MRC-5 | screen | maximum inhibition | 11.7% |
| CC(C(O)c1ccc(O)cc1)N1CCC(Cc2ccccc2)CC1 (centres unmarked) | OPRM1 | binding |  |  | Ki | 1420 nM |
| CC[C@@H]1CN2CCc3c([nH]c4cccc(OC)c34)[C@@H]2C[C@@H]1C(=CO)C(=O)OC | OPRM1 | G protein activation, agonist, BRET | human cells |  | EC50 | 995 ± 344 nM |
| COc1cc(C(=O)N2CC[C@@H](O)[C@@H](N)C2)cc2nc(-c3cc4ccccc4n3CC3CC3)n(C)c12 | OPRM1 | agonist, GTPγS binding |  |  | EC50 | > 100000 nM |

A few entries again:
| Compound | target or system | test | system | conditions | measurement | value |
| --- | --- | --- | --- | --- | --- | --- |
| Cc1c(O)c(=O)ccn1C | human coronavirus OC43 | virus-induced cell killing | MRC-5 | screen | maximum inhibition | 11.7% |
